# Published values from different studies.
# Several values in a cell are separate wells, animals, samples, runs or records. ± marks the error that the study gave.
SMILES,assay,test system,conditions,plasma concentration
C=C[C@]1(C)C[C@@H](OC(=O)CSc2ccc(NC(=O)c3ccco3)cc2)[C@]2(C)[C@H](C)CC[C@]3(CCC(=O)[C@H]32)[C@@H](C)[C@@H]1O,,"Mycoplasma gallisepticum-infected chickens, plasma","intramuscular, 40 mg/kg, 10 h",58.4 ng/mL and 74 ng/mL and 80.4 ng/mL and 60.3 ng/mL and 51.4 ng/mL and 57.4 ng/mL and 57.5 ng/mL and 56.1 ng/mL
CC(CCC(=O)NCC(=O)O)C1CCC2C3CCC4CC(OC5OC(C(=O)O)C(O)C(O)C5O)CCC4(C)C3CC(O)C12C (stereo not drawn),,"healthy human volunteers, plasma","dose not given, 0 h, baseline phase, no drug",92.9 ± 25.4 nM
Cc1noc(C)c1Cn1cc(N2C(=O)CN(Cc3cccc(O[C@@H]4O[C@H](C(=O)O)[C@@H](O)[C@H](O)[C@H]4O)c3)C2=O)cn1,,"rat Sprague-Dawley male, plasma","intravenous, 1 mg/kg of parent drug, 0.08 h",315 ng/mL
CCC(=O)N(C)c1ccc(Cl)c(Cl)c1,,"mouse C57BL/6, female, plasma","subcutaneous, 2 mg/kg, 2 h",18.1 ng/mL
Cc1nn(-c2nc3c(F)cc(F)cc3s2)c(O)c1C(c1ccc(C(F)(F)F)cc1)c1c(C)nn(-c2nc3c(F)cc(F)cc3s2)c1O,,ICR mouse,"intraperitoneal, 10 mg/kg, 0.25 h, mean, abnormal animal excluded",578 ng/mL
O=C(NS(=O)(=O)c1cccs1)c1cc2ccccc2n1Cc1ccc(Br)c2ccccc12,,"Sprague-Dawley rat, male, plasma","intravenous bolus, 2 mL/kg, 2 h",106 ng/mL and 65 ng/mL
Cc1noc(C)c1Cn1cc(N2C(=O)CN(Cc3cccc(OS(=O)(=O)O)c3)C2=O)cn1,,"Sprague-Dawley rat, male","oral, 30 mg/kg of parent drug, 1 h",2980 ng/mL
C[C@H](CCC(=O)NCC(=O)O)[C@H]1CC[C@H]2[C@@H]3[C@H](O)C[C@@H]4C[C@H](OS(=O)(=O)O)CC[C@]4(C)[C@H]3CC[C@]12C,,"healthy human volunteers, plasma","dose not given, 0 h, control phase, probe drugs alone",82.6 ± 20.6 nM
C[C@]12C[C@H](c3ccc(S(C)(=O)=O)cc3)C3=C4CCC(=O)C=C4CC[C@H]3[C@@H]1CC[C@@]2(O)C(F)(F)C(F)(F)F,measured: compound (parent),"healthy human volunteers, pooled plasma","oral, 5 mg daily, day 28, 72 h",5.84 ng/mL

# Some of these lines once more:
SMILES,assay,test system,conditions,plasma concentration
CC(CCC(=O)NCC(=O)O)C1CCC2C3CCC4CC(OC5OC(C(=O)O)C(O)C(O)C5O)CCC4(C)C3CC(O)C12C (stereo not drawn),,"healthy human volunteers, plasma","dose not given, 0 h, baseline phase, no drug",92.9 ± 25.4 nM
